Results gathered from unrelated publications.
Compare with care: the assays were run in different laboratories.
Method: steady-state kinetics
B1: FDC1 (Saccharomyces cerevisiae, UniProt Q03034); chain MRKLNPALEFRDFIQVLKDEDDLIEITEEIDPNLEVGAIMRKAYESHLPAPLFKNLKGASKDLFSILGCPAGLRSKEKGDHGRIAHHLGLDPKTTIKEIIDYLLECKEKEPLPPITVPVSSAPCKTHILSEEKIHLQSLPTPYLHVSDGGKYLQTYGMWILQTPDKKWTNWSIARGMVVDDKHITGLVIKPQHIRQIADSWAAIGKANEIPFALCFGVPPAAILVSSMPIPEGVSESDYVGAILGESVPVVKCETNDLMVPATSEMVFEGTLSLTDTHLEGPFGEMHGYVFKSQGHPCPLYTVKAMSYRDNAILPVSNPGLCTDETHTLIGSLVATEAKELAIESGLPILDAFMPYEAQALWLILKVDLKGLQALKTTPEEFCKKVGDIYFRTKVGFIVHEIILVADDIDIFNFKEVIWAYVTRHTPVADQMAFDDVTSFPLAPFVSQSSRSKTMKGGKCVTNCIFRQQYERSFDYITCNFEKGYPKGLVDKVNENWKRYGYK
B2: POLK W214Y/W392H (Homo sapiens, UniProt Q9UBT6); chain MGLNDNKAGMEGLDKEKINKIIMEATKGSRFYGNELKKEKQVNQRIENMMQQKAQITSQQLRKAQLQVDRFAMELEQSRNLSNTIVHIDMDAFYAAVEMRDNPELKDKPIAVGSMSMLSTSNYHARRFGVRAAMPGFIAKRLCPQLIIVPPNFDKYRAVSKEVKEILADYDPNFMAMSLDEAYLNITKHLEERQNYPEDKRRYFIKMGSSVENDNPGKEVNKLSEHERSISPLLFEESPSDVQPPGDPFQVNFEEQNNPQILQNSVVFGTSAQEVVKEIRFRIEQKTTLTASAGIAPNTMLAKVCSDKNKPNGQYQILPNRQAVMDFIKDLPIRKVSGIGKVTEKMLKALGIITCTELYQQRALLSLLFSETSHHYFLHISLGLGSTHLTRDGERKSMSVERTFSEINKAEEQYSLCQELCSELAQDLQKERLKGRTVTIKLKNVNFEVKTRASTVSSVVSTAEEIFAIAKELLKTEIDADFPHPLRLRLMGVRISSFPNEEDRKHQQ
B3: bga E532Q (Niallia circulans, UniProt E5RWQ2); chain GNSVSYDGERRVNFNENWRFQRETNGSIAGAQNPGFDDSSWRKLNLPHDWSIELDFNKNSLATHEGGYLDGGIGWYRKTFTIPESMKGKRISLDFDGVYMNSTTYLNGEVLGTYPFGYNAFSYDISDKLYKDGRANVLVVKVNNTQPSSRWYSGSGIYRNVYLTVTDPIHVARYGTFVTTPNLEKSIKEDRADVNIKTKISNDAAEAKQVKIKSTIYDGAGNTVQTVETEEKTAAAGTVTPFEQNTVIKQPKLWSIDKPYRYNLVTEVIVGGQTVDTYETKFGVRYFKFDENEGFSLNGEYMKLHGVSMHHDLGALGAATNARGVERQMQIMKDMGVNAIRVTHNPASPELLEAANKLGLFIIEEAFDSWAQSKKPYDYGRFFNAWAEHDIKEMVDRGKNEPAIIMWSIGNEIYDTTNAAGVETARNLVGWVKEIDTTRPTTIGEDKTRGDKVNVTPINSYIKEIFNIVDVVGLNYSENNYDGYHKQNPSWKLYGSQTSSATRSRGVYTHPYQYNQSTKYADLQQSSYDNDYVGWGRTAEDAWKYDRDLKHIAGQFIWTGFDYIGEPTPYYNSYPAKSSYFGAVDTAGFPKDIFYYYQSQWKKEPMVHLLPHWNWKEGEKVRVLAYTNASKVELVLNGESLGEKNYDNKQTSWGAPYKETKDGKTYLEWAVPFKPGKLEAVAKDENGKVIARDQVVTAGEPASVRLTADRKVVKADGTDLSFITADIVDSKGIVVPDADHLITFNVTGQGELAGVDNGNASSVERYKDNKRKAFSGKALAIVQSSKLSGKITVHASVAGLSSDSTSVFTVTP
B4: Saccharopine reductase Y99F (Saccharomyces cerevisiae, UniProt P38999); chain MGKNVLLLGSGFVAQPVIDTLAANDDINVTVACRTLANAQALAKPSGSKAISLDVTDDSALDKVLADNDVVISLIPYTFHPNVVKSAIRTKTDVVTSSFISPALRELEPEIVKAGITVMNEIGLDPGIDHLYAVKTIDEVHRAGGKLKSFLSYCGGLPAPEDSDNPLGYKFSWSSRGVLLALRNSAKYWKDGKIETVSSEDLMATAKPYFIYPGYAFVCYPNRDSTLFKDLYHIPEAETVIRGTLRYQGFPEFVKALVDMGMLKDDANEIFSKPIAWNEALKQYLGAKSTSKEDLIASIDSKATWKDDEDRERILSGFAWLGLFSDAKITPRGNALDTLCARLEELMQYEDNERDMVVLQHKFGIEWADGTTETRTSTLVDYGKVGGYSSMAATVGYPVAIATKFVLDGTIKGPGLLAPYSPEINDPIMKELKDKYGIYLKEKTVA
B5: enzyme (Brachypodium distachyon, UniProt I1IPY7); chain MEQGKAALGWAARDASGHLSPYNFSRRVQKDDDVTIKVLFCGICHTDLHIIKNEWGNALYPIVPGHEVVGVVTDVGPGVKNFKAGETVGVGYFLDSCRTCDSCSKGHENYCPTLVLTSNGVDYDGATTQGGFSDVVVVNQDYVVRVPDTLPPDGAAPLLCAGVTVYSPMMQYGLNAPGKHLGVVGLGGLGHMAVKFGKAFGMKVTVISSSLRKREEALDRLGADDFLVSSDAEQMKAAAGAMDGIIDTVSAGHPIVPLLELLRPMGQMVVCGAPSEPLQLPAYAVITGGKRIAGNGVGSVRDCQAMLDFAGEHGITADVEVVKMDYVNTAVERLERNDVRYRFVIDVAGSLQQGGAA
B6: GSH1 E201K (Arabidopsis thaliana, UniProt P46309); chain AASPPTEEAVVATEPLTREDLIAYLASGCKTKDKYRIGTEHEKFGFEVNTLRPMKYDQIAELLNGIAERFEWEKVMEGDKIIGLKQGKQSISLEPGGQFELSGAPLETLHQTCAEVNSHLYQVKAVAKEMGIGFLGIGFQPKWRREDIPIMPKGRYDIMRNYMPKVGTLGLDMMLRTCTVQVNLDFSSEADMIRKFRAGLALQPIATALFANSPFTEGKPNGFLSMRSHIWTDTDKDRTGMLPFVFDDSFGFEQYVDYALDVPMYFAYRKNKYIDCTGMTFRQFLAGKLPCLPGELPSYNDWENHLTTIFPEVRLKRYLEMRGADGGPWRRLCALPAFWVGLLYDDDSLQAILDLTADWTPAEREMLRNKVPVTGLKTPFRDGLLKHVAEDVLKLAKDGLERRGYKEAGFLNAVDEVVRTGVTPAEKLLEMYNGEWGQSVDPVFEELLY
B7: nicotinamidase (Streptococcus pneumoniae, UniProt A0A0H2UR34); chain MTKALISIDYTEDFVADSGKLTAGAPAQAISDAISKVTRLAFERGDYIFFTIDAHEENDCFHPESKLFPPHNLIGTSGRNLYGDLGIFYQEHGSDSRVFWMDKRHYSAFSGTDLDIRLRERRVSTVILTGVLTDICVLHTAIDAYNLGYDIEIVKPAVASIWPENHQFALGHFKNTLGAKLVDENLNELFE
Chain of UniProt O60656 (whole entry, looked up): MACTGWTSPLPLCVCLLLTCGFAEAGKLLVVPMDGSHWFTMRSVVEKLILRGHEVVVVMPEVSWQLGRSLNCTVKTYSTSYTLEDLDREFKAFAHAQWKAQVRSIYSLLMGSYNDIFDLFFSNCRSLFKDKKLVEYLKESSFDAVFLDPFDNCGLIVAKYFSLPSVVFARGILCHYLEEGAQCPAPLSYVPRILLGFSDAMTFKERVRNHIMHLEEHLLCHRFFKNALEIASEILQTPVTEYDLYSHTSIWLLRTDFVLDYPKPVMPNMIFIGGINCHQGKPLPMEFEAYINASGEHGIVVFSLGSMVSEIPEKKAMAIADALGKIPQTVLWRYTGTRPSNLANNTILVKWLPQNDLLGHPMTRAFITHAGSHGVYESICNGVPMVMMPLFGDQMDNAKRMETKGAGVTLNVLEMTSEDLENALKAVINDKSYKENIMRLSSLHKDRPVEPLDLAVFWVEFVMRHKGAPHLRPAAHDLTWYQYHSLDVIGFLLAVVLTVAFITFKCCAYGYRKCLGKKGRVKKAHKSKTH

With `UGT1A9 (Homo sapiens, UniProt O60656)` the Vmax was 0.000139 µmol/min/mg (COc1ccc(-c2coc3cc(O)ccc3c2=O)cc1; pH 7.4, 37 °C).
`B1 (FDC1)` gave a Km of 110 µM (O=C(O)/C=C/c1ccc(O)cc1; pH 7, 25 °C, apparent kcat, incomplete cofactor occupancy, apparent).
With `B2 (POLK W214Y/W392H)` the Km was 1.7 µM (Nc1ccn([C@H]2C[C@H](O)[C@@H](COP(=O)(O)OP(=O)(O)OP(=O)(O)O)O2)c(=O)n1; pH 7.5, 23 °C, MgCl2 5 mM, added: G template).
With `B3 (bga E532Q)` the Km was 1900 µM (O=[N+]([O-])c1ccccc1O[C@@H]1O[C@H](CO)[C@H](O)[C@H](O)[C@H]1O; pH 6, 40 °C, low-substrate phase, biphasic).
The Km of `B4 (Saccharopine reductase Y99F)` is reported as 740 µM (NC(=O)c1ccc[n+]([C@@H]2O[C@H](COP(=O)(O)OP(=O)(O)OC[C@H]3O[C@@H](n4cnc5c(N)ncnc54)[C@H](OP(=O)(O)O)[C@@H]3O)[C@@H](O)[C@H]2O)c1; pH 9, 25 °C, added: saccharopine).
`enzyme (Thermobifida fusca, UniProt Q47RK4)` has a Km of 2280 µM (CC(=O)SCCNC(=O)CCNC(=O)[C@H](O)C(C)(C)COP(=O)(O)OP(=O)(O)OC[C@H]1O[C@@H](n2cnc3c(N)ncnc32)[C@H](O)[C@@H]1OP(=O)(O)O; pH 7.4, 37 °C).
The Km of `ldh (Lactococcus cremoris, UniProt A2RKA4)` is reported as 380 µM (NC(=O)c1ccc[n+]([C@@H]2O[C@H](COP(=O)(O)OP(=O)(O)OC[C@H]3O[C@@H](n4cnc5c(N)ncnc54)[C@H](O)[C@@H]3O)[C@@H](O)[C@H]2O)c1; pH 7, 30 °C, apparent).
For `protein (Streptomyces glaucescens, UniProt B0B0T9)`, the Km was 306 µM (Cc1cn([C@H]2C[C@H](O)[C@@H](COP(=O)(O)OP(=O)(O)O[C@H]3O[C@H](C)[C@@H](N)[C@H](O)[C@H]3O)O2)c(=O)[nH]c1=O; pH 7.5, 30 °C, apparent, added: maltose 1 mM).
With `B5 (enzyme)` the Km was 1.3 µM (NC(=O)C1=CN([C@@H]2O[C@H](COP(=O)(O)OP(=O)(O)OC[C@H]3O[C@@H](n4cnc5c(N)ncnc54)[C@H](OP(=O)(O)O)[C@@H]3O)[C@@H](O)[C@H]2O)C=CC1; pH 5.35, 23 °C, cofactor varied).
With `B6 (GSH1 E201K)` the Km was 1450 µM (Nc1ncnc2c1ncn2[C@@H]1O[C@H](COP(=O)(O)OP(=O)(O)OP(=O)(O)O)[C@@H](O)[C@H]1O; pH 7).
`protein (Cecembia lonarensis, UniProt K1KV82)` has a Km of 417 µM (C[C@@H]1O[C@@H](Oc2ccc([N+](=O)[O-])cc2)[C@@H](O)[C@H](O)[C@H]1O; pH 5.5, 35 °C).
For `B7 (nicotinamidase)`, the Km was 2.7 µM (NC(=O)c1cccnc1; pH 7.3, progress curve analysis).
`oxalate oxidase (Gelatoporia subvermispora, UniProt Q5ZH56)` has a Km of 1500 µM (O=C(O)C(=O)O; pH 4, added: oxalate 0.01-90 mM).
